Results pooled from the literature.
Numbered parts are unrelated; each lists some results of a single study.
Chain of UniProt O75676 (whole entry, looked up): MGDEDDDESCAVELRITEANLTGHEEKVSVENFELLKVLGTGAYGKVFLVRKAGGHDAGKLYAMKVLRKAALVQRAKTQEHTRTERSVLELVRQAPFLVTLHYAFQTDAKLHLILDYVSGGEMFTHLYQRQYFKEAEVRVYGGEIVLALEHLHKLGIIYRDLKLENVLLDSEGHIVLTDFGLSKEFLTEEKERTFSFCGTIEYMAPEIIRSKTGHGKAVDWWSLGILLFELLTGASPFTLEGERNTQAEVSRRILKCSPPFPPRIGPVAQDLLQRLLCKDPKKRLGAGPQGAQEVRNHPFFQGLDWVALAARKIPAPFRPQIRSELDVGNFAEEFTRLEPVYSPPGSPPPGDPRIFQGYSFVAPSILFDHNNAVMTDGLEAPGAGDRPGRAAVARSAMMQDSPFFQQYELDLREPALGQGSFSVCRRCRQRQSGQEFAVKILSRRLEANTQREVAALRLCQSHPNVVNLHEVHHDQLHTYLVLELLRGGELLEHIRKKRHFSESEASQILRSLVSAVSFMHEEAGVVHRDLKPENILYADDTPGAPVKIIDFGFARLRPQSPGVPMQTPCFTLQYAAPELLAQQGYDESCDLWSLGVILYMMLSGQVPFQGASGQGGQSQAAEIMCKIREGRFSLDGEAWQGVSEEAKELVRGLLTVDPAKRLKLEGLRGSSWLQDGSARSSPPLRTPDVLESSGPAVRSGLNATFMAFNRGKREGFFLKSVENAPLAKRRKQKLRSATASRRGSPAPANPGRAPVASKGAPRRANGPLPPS
Chain of UniProt Q02750 (whole entry, looked up): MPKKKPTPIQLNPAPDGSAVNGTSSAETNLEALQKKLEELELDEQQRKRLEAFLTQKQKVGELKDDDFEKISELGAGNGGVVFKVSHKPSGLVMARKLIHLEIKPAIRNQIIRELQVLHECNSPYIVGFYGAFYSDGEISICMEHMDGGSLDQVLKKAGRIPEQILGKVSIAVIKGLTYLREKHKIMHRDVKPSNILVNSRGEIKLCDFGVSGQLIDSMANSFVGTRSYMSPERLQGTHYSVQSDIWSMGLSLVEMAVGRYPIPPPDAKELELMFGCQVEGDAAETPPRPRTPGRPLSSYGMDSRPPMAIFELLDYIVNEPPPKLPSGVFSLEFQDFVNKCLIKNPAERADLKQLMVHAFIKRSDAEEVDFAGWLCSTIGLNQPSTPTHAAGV
Chain of UniProt P42681 (whole entry, looked up): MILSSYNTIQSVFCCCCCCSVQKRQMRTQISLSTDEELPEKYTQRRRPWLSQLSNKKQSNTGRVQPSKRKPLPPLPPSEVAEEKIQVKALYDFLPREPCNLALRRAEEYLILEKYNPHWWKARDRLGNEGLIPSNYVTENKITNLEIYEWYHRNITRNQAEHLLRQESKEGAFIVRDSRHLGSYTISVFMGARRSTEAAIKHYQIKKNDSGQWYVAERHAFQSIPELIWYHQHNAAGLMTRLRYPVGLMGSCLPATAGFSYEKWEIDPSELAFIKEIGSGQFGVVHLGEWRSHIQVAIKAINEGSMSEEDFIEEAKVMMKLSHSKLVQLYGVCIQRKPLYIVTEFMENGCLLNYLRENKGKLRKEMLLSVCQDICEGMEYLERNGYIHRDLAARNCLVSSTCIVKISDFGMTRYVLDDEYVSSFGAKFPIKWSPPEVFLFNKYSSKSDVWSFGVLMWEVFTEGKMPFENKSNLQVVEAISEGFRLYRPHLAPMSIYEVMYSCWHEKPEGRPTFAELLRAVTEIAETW
Chain of UniProt P35968 (whole entry, looked up): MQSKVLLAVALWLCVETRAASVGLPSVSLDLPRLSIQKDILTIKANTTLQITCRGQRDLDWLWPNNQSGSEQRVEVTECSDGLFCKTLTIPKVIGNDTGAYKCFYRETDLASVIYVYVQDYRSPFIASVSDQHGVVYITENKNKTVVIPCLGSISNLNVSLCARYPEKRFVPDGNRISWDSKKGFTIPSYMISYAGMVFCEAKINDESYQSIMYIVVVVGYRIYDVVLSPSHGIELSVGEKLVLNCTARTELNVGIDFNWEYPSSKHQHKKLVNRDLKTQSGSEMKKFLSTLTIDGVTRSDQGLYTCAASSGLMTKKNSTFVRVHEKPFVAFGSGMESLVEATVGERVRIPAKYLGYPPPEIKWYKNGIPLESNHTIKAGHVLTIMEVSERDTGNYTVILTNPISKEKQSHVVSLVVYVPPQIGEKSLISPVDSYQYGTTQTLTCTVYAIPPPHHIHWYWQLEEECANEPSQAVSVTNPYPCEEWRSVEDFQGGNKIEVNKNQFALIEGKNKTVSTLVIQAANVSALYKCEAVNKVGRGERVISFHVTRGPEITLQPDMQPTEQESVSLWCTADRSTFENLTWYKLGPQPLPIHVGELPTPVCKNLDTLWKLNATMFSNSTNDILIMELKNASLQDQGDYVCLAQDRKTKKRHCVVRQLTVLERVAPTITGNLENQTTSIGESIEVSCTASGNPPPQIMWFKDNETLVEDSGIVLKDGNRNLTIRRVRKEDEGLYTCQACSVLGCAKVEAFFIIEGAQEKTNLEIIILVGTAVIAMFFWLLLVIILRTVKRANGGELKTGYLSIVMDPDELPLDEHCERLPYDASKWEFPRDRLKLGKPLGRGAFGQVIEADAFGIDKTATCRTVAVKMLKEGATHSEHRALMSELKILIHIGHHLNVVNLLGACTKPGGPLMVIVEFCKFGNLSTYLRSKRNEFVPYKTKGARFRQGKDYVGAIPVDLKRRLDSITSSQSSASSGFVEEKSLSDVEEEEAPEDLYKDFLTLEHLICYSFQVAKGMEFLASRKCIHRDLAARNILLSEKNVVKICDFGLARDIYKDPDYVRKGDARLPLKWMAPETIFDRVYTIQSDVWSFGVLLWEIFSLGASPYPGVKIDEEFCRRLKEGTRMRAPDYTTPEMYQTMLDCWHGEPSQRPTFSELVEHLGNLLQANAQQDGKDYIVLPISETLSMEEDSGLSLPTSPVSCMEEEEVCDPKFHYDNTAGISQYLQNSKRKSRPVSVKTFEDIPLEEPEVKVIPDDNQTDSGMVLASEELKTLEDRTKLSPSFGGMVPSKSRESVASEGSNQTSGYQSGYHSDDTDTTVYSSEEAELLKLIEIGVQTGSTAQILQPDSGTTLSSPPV
Chain of UniProt O43353 (whole entry, looked up): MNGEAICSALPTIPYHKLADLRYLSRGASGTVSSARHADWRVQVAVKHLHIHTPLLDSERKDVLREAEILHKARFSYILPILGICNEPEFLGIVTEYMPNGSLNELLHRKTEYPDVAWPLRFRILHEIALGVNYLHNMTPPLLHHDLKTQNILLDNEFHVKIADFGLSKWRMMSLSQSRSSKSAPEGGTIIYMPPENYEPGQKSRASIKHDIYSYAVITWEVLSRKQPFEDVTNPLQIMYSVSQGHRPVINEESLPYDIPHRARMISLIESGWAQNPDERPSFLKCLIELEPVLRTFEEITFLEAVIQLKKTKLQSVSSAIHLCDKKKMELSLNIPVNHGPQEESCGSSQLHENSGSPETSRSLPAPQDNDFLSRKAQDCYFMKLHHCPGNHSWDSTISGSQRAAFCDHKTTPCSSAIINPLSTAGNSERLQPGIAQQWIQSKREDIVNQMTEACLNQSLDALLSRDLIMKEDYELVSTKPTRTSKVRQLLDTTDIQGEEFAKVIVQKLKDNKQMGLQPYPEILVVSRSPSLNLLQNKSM
Chain of UniProt O15530 (whole entry, looked up): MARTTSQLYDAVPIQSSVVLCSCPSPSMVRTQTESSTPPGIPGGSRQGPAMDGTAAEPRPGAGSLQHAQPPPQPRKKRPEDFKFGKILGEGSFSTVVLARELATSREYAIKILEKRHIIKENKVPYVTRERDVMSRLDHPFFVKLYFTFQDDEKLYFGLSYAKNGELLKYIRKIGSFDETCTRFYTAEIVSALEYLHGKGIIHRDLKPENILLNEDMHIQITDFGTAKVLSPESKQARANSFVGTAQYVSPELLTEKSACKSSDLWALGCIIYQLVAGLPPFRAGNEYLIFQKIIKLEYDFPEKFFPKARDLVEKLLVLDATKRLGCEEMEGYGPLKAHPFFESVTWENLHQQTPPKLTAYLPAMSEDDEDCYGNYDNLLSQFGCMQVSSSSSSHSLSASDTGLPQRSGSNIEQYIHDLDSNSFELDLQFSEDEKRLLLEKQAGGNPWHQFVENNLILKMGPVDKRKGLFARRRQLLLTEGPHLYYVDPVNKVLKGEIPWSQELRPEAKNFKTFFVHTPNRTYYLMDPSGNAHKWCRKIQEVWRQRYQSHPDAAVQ
Chain of UniProt Q9UKI8 (whole entry, looked up): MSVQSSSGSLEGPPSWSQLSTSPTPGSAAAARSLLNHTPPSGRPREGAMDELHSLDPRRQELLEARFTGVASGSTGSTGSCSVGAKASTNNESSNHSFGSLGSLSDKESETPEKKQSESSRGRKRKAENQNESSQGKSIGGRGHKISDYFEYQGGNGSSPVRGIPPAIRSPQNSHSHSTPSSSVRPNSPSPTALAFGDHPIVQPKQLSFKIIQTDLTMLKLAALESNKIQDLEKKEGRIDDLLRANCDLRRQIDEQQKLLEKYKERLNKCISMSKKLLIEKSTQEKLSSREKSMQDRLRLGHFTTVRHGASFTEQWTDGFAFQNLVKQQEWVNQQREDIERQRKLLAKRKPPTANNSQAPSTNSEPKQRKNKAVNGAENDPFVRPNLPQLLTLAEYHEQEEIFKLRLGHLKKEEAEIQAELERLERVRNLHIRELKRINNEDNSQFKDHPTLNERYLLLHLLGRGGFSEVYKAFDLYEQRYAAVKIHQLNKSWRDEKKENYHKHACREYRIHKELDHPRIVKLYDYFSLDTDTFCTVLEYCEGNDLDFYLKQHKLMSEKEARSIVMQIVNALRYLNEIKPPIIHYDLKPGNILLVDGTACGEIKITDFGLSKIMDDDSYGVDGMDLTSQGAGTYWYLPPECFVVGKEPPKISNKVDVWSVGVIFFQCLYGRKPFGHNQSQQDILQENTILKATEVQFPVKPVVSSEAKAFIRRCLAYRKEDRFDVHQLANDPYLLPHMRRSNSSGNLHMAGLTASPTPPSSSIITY

Series 1 — observed: enzyme activity; mode: inhibitor; tested at: 0.5 µM; reference: control
Compound: O=S(=O)(NCCNC/C=C/c1ccc(Br)cc1)c1cccc2cnccc12
| target | remaining activity |
| --- | --- |
| CLK3 (Homo sapiens, UniProt P49761) | 87.6% |
| KDR (Homo sapiens, UniProt P35968) | 79.1% |
| CLK4 (Homo sapiens, UniProt Q9HAZ1) | 119% |
| TXK (Homo sapiens, UniProt P42681) | 86.8% |
| MAPK11 (Homo sapiens, UniProt Q15759) | 87.2% |
| MINK1 (Homo sapiens, UniProt Q8N4C8) | 91.1% |
| CAMK4 (Homo sapiens, UniProt Q16566) | 95.2% |
| DCLK2 (Homo sapiens, UniProt Q8N568) | 90.1% |
| ROCK1 (Homo sapiens, UniProt Q13464) | 37.8% |
| RPS6KA4 (Homo sapiens, UniProt O75676) | 38.8% |
| Cyclin-dependent kinase 1, with cyclin A (CDK1, Homo sapiens, UniProt P06493) | 95.3% |
| NEK3 (Homo sapiens, UniProt P51956) | 94.3% |
| MAP2K1 (Homo sapiens, UniProt Q02750) | 90.5% |

Series 2 — cell line: mouse MPNST tumor cells; method: high-content nuclear imaging; measured: cell number; tested at: 10 µM; time: 12 h; setting: mean of 2 replicates; reference: plate mean; reading: higher = more cells
| Compound | nuclei count [z-score] |
| --- | --- |
| COc1cc(N2CCN(C)CC2)ccc1Nc1nccc(-c2cn(C)c3cnccc23)n1 | 0.476 |
| O=C(NCCS(=O)(=O)c1ccc(C(F)(F)F)cn1)c1ccc(Cl)cc1 | 1.72 |
| Cc1ccc(C(=O)c2cc(O)c(O)c([N+](=O)[O-])c2)cc1 | 0.95 |
| NNCCc1ccccc1 | -0.254 |
| Cc1cc(OCc2nnc(SC3CCCC3)n2-c2cccnc2)ccc1-c1ccc(S(C)(=O)=O)cc1 | -6.49 |
| NC(=O)N/N=C/c1ccc([N+](=O)[O-])o1 | -0.409 |
| CC(C(=O)O)c1ccc2c(c1)[nH]c1ccc(Cl)cc12 (stereo not drawn) | 0.313 |
| CC1c2cccc(O)c2C(O)=C2C(=O)C3(O)C(O)=C(C(N)=O)C(=O)C(N(C)C)C3C(O)C21 (stereo not drawn) | -0.0502 |
| O=C1N(c2ccccc2)c2ccccc2C1(Cc1ccncc1)Cc1ccncc1 | 1.69 |

Series 3 — observed: acetyl-histone H4 peptide binding; method: AlphaScreen displacement; tested at: 50 µM
Target: Bromodomain-containing protein 4, BD1 (BRD4, Homo sapiens, UniProt O60885)
| Compound | inhibition [%] |
| --- | --- |
| N#CC(=Cc1cccnc1)c1nc2ccccc2s1 | 25.4 |
| COc1cccc(Nc2ncc3c(n2)CCN(C(=O)OC(C)(C)C)C3)c1 | 32.2 |
| COc1ccc(-c2csc3nc[nH]c(=O)c23)cc1 | 11.8 |
| COc1ccccc1NC(=O)N=c1[nH]nc(C=Cc2ccccc2)s1 | 26.7 |

Series 4 — method: competition with immobilised ligand; tested at: 1 µM
SMILES: CCC(=O)N[C@H]1CC[C@@H](C(=O)N(C)c2ccc(-c3nc4ccccc4o3)cc2)C1
| target | observed | remaining binding |
| --- | --- | --- |
| MAP3K1 (Homo sapiens, UniProt Q13233) | cell-free assay | 73% |
| RIPK2 (Homo sapiens, UniProt O43353) | cell-free assay | 100% |
| Tyrosine-protein kinase ABL1, non-phosphorylated (ABL1, Homo sapiens, UniProt P00519, F317I) | binding | 86% |
| TLK1 (Homo sapiens, UniProt Q9UKI8) | cell-free assay | 84% |
| Tyrosine-protein kinase ABL1, non-phosphorylated (ABL1, Homo sapiens, UniProt P00519, Q252H) | cell-free assay | 72% |
| PDPK1 (Homo sapiens, UniProt O15530) | cell-free assay | 90% |
| STK32C (Homo sapiens, UniProt Q86UX6) | cell-free assay | 94% |

Excerpt of the above (series 1):
| target | remaining activity |
| --- | --- |
| TXK (Homo sapiens, UniProt P42681) | 86.8% |
| MAPK11 (Homo sapiens, UniProt Q15759) | 87.2% |
| MINK1 (Homo sapiens, UniProt Q8N4C8) | 91.1% |
